Measured values gathered from unrelated publications.
Protocols differ between the studies behind these lines. Several values in a cell are separate wells, animals, samples, runs or records.
Target: Ephrin type-A receptor 1 (EPHA1, Homo sapiens, UniProt P21709)

CN1CCN(Cc2ccc(-c3ccc(CO[C@H]4CCC[C@@H]4NC(=O)c4cc(-c5cnn(C)c5)cnc4N)cc3)cc2)CC1
inhibition (enzyme activity, inhibitor; 0.1 µM): 1%

Cc1cnc2nc1Nc1cccc(c1)COC/C=C/COCc1cc(ccc1OCCN1CCOCC1)N2
remaining binding (binding; 0.1 µM): 82%

COc1ccc(NC(=O)Nc2ccc3c(c2)C(=O)N(C(C)CO)CC(C)C(CN(C)Cc2ccc4c(c2)OCO4)O3)cc1 (centres unmarked)
remaining activity (kinase activity, KinaseProfiler; 0.03 µM, species human; relative to: control): 100%

Cc1cccc(O[C@H]2CCC[C@@H](C(C)CNCc3ccncc3)C2)c1 (relative stereo)
inhibition (cell-free assay; 1 µM): 0%

C=CC(=O)N1CCCC(n2c(=O)c3ncccc3n(Cc3ccc(Oc4ccccc4)cc3)c2=O)C1 (centres unmarked)
remaining binding (cell-free assay, competition with immobilised ligand; 1 µM): 90%

CCN1CCN(Cc2ccc(C(=O)Nc3ccc(C)c(NCc4cnc5[nH]ccc5c4OC)c3)cc2C(F)(F)F)CC1
remaining binding (binding, competition with immobilised ligand; 1 µM): 72%

NC(=O)[C@@H](O)C[C@H]1CCc2sc3ncnc(O[C@H]4CC[C@H](N5CCOCC5)CC4)c3c21
inhibition (enzyme activity, inhibitor; 10 µM): 8%

COc1c(OCCCN2CCOCC2)ccc2c1N=C(NC(=O)c1cnc(N)nc1)N1CCN=C21
remaining activity (kinase activity, inhibitor; 1 µM; relative to: untreated control): 110%

C=CC(=O)Nc1cccc(-c2cnc3[nH]cc(C(=O)NC(C)(C)C)c3n2)c1
inhibition (kinase activity; 0.1 µM): -7% and -6%

CNC(=O)C1CCN(c2cc(C)c(F)cc2NC(=O)c2ccc(-c3cc(O)ccc3C)c(C)c2)CC1
remaining binding (binding, competition with immobilised ligand; 1 µM): 3.9%

Cc1ccc(-c2c(/C=C(\C#N)C(=O)NC(C)C)n(CCCO)c3ncnc(N)c23)cc1
remaining binding (cell-free assay, competition with immobilised ligand; 1 µM): 87%

Nc1ncc(-c2cc(-c3cnn(CC(F)(F)F)c3)ncc2F)nc1C(=O)NC1CNCC(F)C1 (centres unmarked)
remaining activity (enzyme activity; 1 µM; relative to: DMSO control): 99.8%

CNC1C[S+]2CC[S+]3CC[S+](C1)[Ru-4]321([N]=C=S)[n]2c3ccc(OC)cc3c3c4c(c5cc(F)c[n+]1c5c32)C(=O)NC4=O (centres unmarked)
remaining binding (KinomeScan; 0.1 µM; relative to: untreated): 100%

COc1c(Cl)cccc1Nc1c(-c2ccncc2C#C[C@@]2(C)CCCN2C(=O)/C=C/CN(C)C)[nH]c2c1C(=O)NCC2
remaining binding (cell-free assay, competition with immobilised ligand; 3 µM): 69%
